Published values collected from several papers.
Every numbered part comes from another study and shows a few of its results, in no order.

Set 1 — method: universal PBM; molecule type: double-stranded DNA, one strand shown; sample: in vitro; concentration: not given; reading: higher = stronger binding; measurement: E-score
Target: Sal-like protein 4, full length isoform B (SALL4, Homo sapiens, UniProt Q9UJQ4-2, residues 1-616)
Setting: 8-mer, flanks averaged, mean of replicates
CACGCTAG: -0.0474
CATATGCG: 0.14
ATGAGTCG: 0.0514
GACTCTCC: -0.0638

Set 2 — method: protein-binding microarray; molecule type: double-stranded DNA, one strand shown; sample: in vitro; concentration: 250 nM; setting: 60-bp whole probe; added: salmon DNA 0.4 mg/ml; baseline: random background probes; reading: higher = stronger binding; measurement: log fluorescence
Target: Interferon regulatory factor 7, full length, phosphomimetic (IRF7, Homo sapiens, UniProt Q92985, residues 1-503, S101K/S471D/S472D/S475D/S476D/S477D/S483D/S484D/S487D)
Sequence of UniProt Q92985 (whole entry, unmodified, looked up): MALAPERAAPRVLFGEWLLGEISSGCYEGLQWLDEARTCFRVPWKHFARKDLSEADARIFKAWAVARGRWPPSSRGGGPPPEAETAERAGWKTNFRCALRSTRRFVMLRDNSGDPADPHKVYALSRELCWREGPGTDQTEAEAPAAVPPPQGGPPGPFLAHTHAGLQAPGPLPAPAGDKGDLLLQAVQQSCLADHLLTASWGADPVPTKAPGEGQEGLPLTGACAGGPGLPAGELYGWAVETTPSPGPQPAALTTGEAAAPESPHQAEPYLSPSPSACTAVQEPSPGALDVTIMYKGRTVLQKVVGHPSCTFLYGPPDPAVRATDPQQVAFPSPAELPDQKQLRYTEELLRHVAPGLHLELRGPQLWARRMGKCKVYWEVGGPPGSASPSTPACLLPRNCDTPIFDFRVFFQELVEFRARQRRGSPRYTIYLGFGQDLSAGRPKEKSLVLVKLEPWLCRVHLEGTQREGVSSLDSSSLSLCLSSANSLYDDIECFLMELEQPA
GCCTAGCACGACGGTTTCGGTTTCGGGAGGTGCTAGGTCTTGATTCGCTTGACGCTGCTG: 14.3 z-score
GCCTAGCACGACGGACTGGACTAGCGGGACGTGCTAGTCTTGATTCGCTTGACGCTGCTG: -0.751 z-score
GCCTAGCACTTAGATTTTAGTTCCGATTAGTGCTAGGTCTTGATTCGCTTGACGCTGCTG: 1.35 z-score
GCCTAGCACGGCGGTCTCCTTATCCTGACGTGCTAGGTCTTGATTCGCTTGACGCTGCTG: -0.253 z-score

Set 3 — method: aptamer microarray, sandwich; molecule type: DNA with 2'F-ANA; sample: in vitro; concentration: 200 nM; added: Cy3 exosite-II aptamer, 400 nM; reading: higher = stronger binding; measurement: mean fluorescence intensity
Target: Prothrombin, mature alpha-thrombin (F2, Homo sapiens, UniProt P00734)
Setting: whole 15-mer aptamer, many near background
GGTTGGTGTGGTTGG (2'F-ANA at 1 2 4 6 8 10 13 14): 41.9 a.u.
GGTTGGTGTGGTTGG (2'F-ANA at 2 3 7 9 10 12 14): 339 a.u.
GGTTGGTGTGGTTGG (2'F-ANA at 3 5 7 8 9 12 15): 253 a.u.
GGTTGGTGTGGTTGG (2'F-ANA at 1 2 5 9 11 12 13 15): 67.1 a.u.

Further values, each from its own experiment
PhoQ, residues 284 288 289 292 302 303 SASVAL — fold induction (PhoP, residues 12 14 15 18 19 NHFIF (Escherichia coli, UniProt P23836); Sort-seq, measured: YFP reporter; E. coli; PhoQ-PhoP variant library, added: 10 µM Mg2+; baseline: high Mg2+ state, higher = stronger signaling): 14.3

Repeated from above (set 2):
GCCTAGCACGGCGGTCTCCTTATCCTGACGTGCTAGGTCTTGATTCGCTTGACGCTGCTG: -0.253 z-score
GCCTAGCACGACGGTTTCGGTTTCGGGAGGTGCTAGGTCTTGATTCGCTTGACGCTGCTG: 14.3 z-score
